Measurements of several laboratories.
Each line is one published result; not all experiments were run side by side. Values joined by “and” are separate records of one study, mostly repeats; a detail may differ. ± gives the spread as reported.

SMILES | target or system | test | test system | conditions | how to read | measurement | result
CC1(C)C(=O)N(c2ccc(C#N)c(C(F)(F)F)c2)C(=S)N1c1ccc(C(=O)O)c(F)c1 | – | – | human, male, plasma | oral, 160 mg, single dose, fasting | – | AUC(0-t) | 62000 ± 15300 ng·h/mL
COc1c(N2CC3CCCNC3C2)c(F)cc2c(=O)c(C(=O)OCc3ccc([N+](=O)[O-])o3)cn(C3CC3)c12 (stereo not shown) | – | cyclic voltammetry | anhydrous acetonitrile | concentration not given | reference: Ag/AgCl | reduction potential | -0.81 V
C[C@H](O)[C@@H](NC(=O)[C@H]1CCCN1C(=O)[C@@H](CCCCN)NC(=O)[C@@H](CO)NC(=O)[C@@H](Cc1ccc(O)cc1)NC(=O)[C@@H](CC(N)=O)NC(=O)CCOCCOCCOCCNC(=O)CN1CCN(CC(=O)O)CCN(CC(=O)O)CCN(CC(=O)O)CC1)C(=O)N[C@H](CC(=O)O)C(=O)N[C@H](CCCNC(=N)N)C(=O)N[C@H](CCC(N)=O)C(=O)N[C@H](Cc1ccc(O)cc1)C(=O)N[C@H](Cc1c[nH]cn1)C(=O)N[C@H](Cc1ccccc1)C(N)=O [gallium-68 labelled] | – | – | BALB/c nude mice U-87 MG tumour, fat | intravenous, 1.85 MBq, 0.5 h, radiolabelled | – | tissue uptake | 0.81 ± 0.12 %ID/g
CC(C)[C@H](NC(=O)[C@@H](NC(=O)[C@H](CCCNC(=N)N)NC(=O)[C@H](CCCNC(=N)N)NC(=O)[C@H](CCCNC(=N)N)NC(=O)[C@H](CCC(N)=O)NC(=O)[C@H](CCCNC(=N)N)NC(=O)[C@H](CCCNC(=N)N)NC(=O)[C@H](CCCCN)NC(=O)[C@H](CCCCN)NC(=O)[C@H](CCCNC(=N)N)NC(=O)CN)[C@@H](C)O)C(=O)N[C@H](C(=O)N[C@@H](CO)C(=O)N1CCC[C@H]1C(=O)O)[C@@H](C)O | – | – | ICR mice, male, stomach | intranasal, 20 mg/kg daily, 4 weeks | – | organ weight | 0.461 ± 0.128 g
COc1cnc2cccc(N3CCc4c(cc(Cn5ccnc5)cc4-c4cn(C)nc4C(F)(F)F)C3=O)c2c1 | – | – | BALB/c nude mice, MV4-11 xenograft | intraperitoneal, 100 mg/kg, day 10 | – | body weight | 23.6 g and 22.5 g and 23.4 g and 23.5 g
CC(C)C[C@H](NC(=O)[C@H](Cc1ccc(O)cc1)NC(=O)[C@H](Cc1c[nH]cn1)NC(=O)[C@@H](NC(=O)[C@H](CC(C)C)NC(=O)[C@H](C)NC(=O)[C@H](C)NC(=O)[C@H](CCCCN)NC(=O)CNC(=O)[C@@H](NC(=O)[C@H](Cc1c[nH]cn1)NC(=O)[C@H](CCCCN)NC(=O)CNC(=O)[C@@H](NC(=O)[C@H](Cc1c[nH]cn1)NC(=O)[C@H](C)NC(=O)[C@H](C)NC(=O)[C@H](CCCCN)NC(=O)[C@H](CCCCN)NC(=O)[C@H](Cc1ccccc1)NC(=O)[C@H](Cc1ccccc1)NC(=O)[C@H](CO)NC(=O)CNC(=O)[C@H](Cc1c[nH]c2ccccc12)NC(=O)CN)C(C)C)C(C)C)[C@@H](C)O)C(N)=O | – | – | zebrafish embryos 28 hpf, E3 medium | 1 h | – | acute toxic concentration | 5 µM
Cc1ccc(OCCN(C)C)cc1C(=O)N[C@H](C)c1cc(-c2cnn(C3CNC3)c2)nc2ccccc12 | Vero E6 | – | – | 15.62 µM | – | viability | 99.6% and 105%
O=C(O)/C=C\c1ccc2occc2c1O[C@@H]1O[C@H](CO)[C@@H](O)[C@H](O)[C@H]1O | – | post-procedure stability | rat plasma | 200 ng/mL, 3 h, room temperature | – | accuracy | 110%
CC(C)C[C@H](NC(=O)[C@H](C)NC(=O)[C@H](Cc1cn(CCc2ccc(O)c(C=O)c2)nn1)NC(=O)[C@H](Cc1ccccc1)NC(=O)CCNC(=S)Nc1ccc2c(c1)C(=O)OC21c2ccc(O)cc2Oc2cc(O)ccc21)C(=O)N[C@@H](CC(=O)O)C(=O)N[C@@H](Cc1c[nH]c2ccccc12)C(=O)N[C@@H](CO)C(=O)N[C@@H](Cc1c[nH]c2ccccc12)C(=O)N[C@@H](CC(C)C)C(=O)N[C@@H](CCC(N)=O)C(=O)N[C@H](C(=O)N[C@@H](CCC(=O)O)C(N)=O)[C@@H](C)O | – | dynamic light scattering | PBS/DMSO | 10 nM | – | hydrodynamic diameter | 486 ± 43.3 nm
O=C1NC2(CC2)COc2ncc(F)cc2[C@H]2COCCN2c2ccn3ncc1c3n2 | – | – | Sprague-Dawley rat, female, kidneys | oral, 5 mg/kg/day, 4 weeks dosing, end of recovery | – | organ-to-brain weight ratio | 95.2 ± 9.04%
N#[11C]c1ccc(-c2csc(NN=C3CCCC3)n2)cc1 | – | dynamic PET/CT | C57BL/6 mouse, kidneys | intravenous, dose not given, 1 min | – | peak radioactivity uptake | 1.1 SUV
CCn1ccc(-c2cc([C@@H](C)NC(=O)c3cc(N4CC5CCC(C4)N5C)ccc3C)c3ccccc3n2)n1 | Vero E6 | – | – | 3.906 µM | – | viability | 100% and 91% and 96.6%
CC[C@H](C)[C@H](NC(=O)[C@H](CCCCN)NC(=O)CNC(=O)[C@H](CC(C)C)NC(=O)[C@H](Cc1ccccc1)NC(=O)[C@H](CCCCN)NC(=O)[C@H](CO)NC(=O)[C@H](Cc1ccccc1)NC(=O)[C@H](Cc1c[nH]c2ccccc12)NC(=O)[C@H](CCC(N)=O)NC(=O)[C@@H](NC(=O)[C@H](Cc1ccccc1)NC(=O)CCCCCNC(=O)CN1CCN(CC(=O)O)CCN(CC(=O)O)CCN(CC(=O)O)CC1)C(C)C)C(=O)N[C@@H](CCC(=O)O)C(=O)N1CCC[C@H]1C(=O)N[C@@H](CC(=O)O)C(=O)N[C@H](C(=O)N[C@@H](CO)C(=O)N[C@@H](CCC(N)=O)C(=O)N[C@H](C(=O)N[C@@H](CCC(N)=O)C(=O)N[C@@H](CC(=O)O)C(=O)N1CCC[C@H]1C(=O)N[C@@H](CC(N)=O)C(=O)N[C@@H](CC(=O)O)C(=O)N[C@@H](CCC(N)=O)C(=O)N[C@@H](Cc1ccc(O)cc1)C(=O)N[C@@H](CCC(=O)O)C(=O)N1CCC[C@H]1C(=O)N[C@@H](Cc1ccccc1)C(=O)O)C(C)C)C(C)C [copper-64 labelled] | – | – | C57BL/6 mice, male, naive, skeletal muscle | 2 h | – | tissue uptake | 0.75 ± 0.1 %ID/g
